{"data": "Measurements collected from several papers", "note": "Every numbered part comes from another study and shows a few of its results, in no order.", "chain of UniProt Q9NWZ3 (whole entry, looked up)": "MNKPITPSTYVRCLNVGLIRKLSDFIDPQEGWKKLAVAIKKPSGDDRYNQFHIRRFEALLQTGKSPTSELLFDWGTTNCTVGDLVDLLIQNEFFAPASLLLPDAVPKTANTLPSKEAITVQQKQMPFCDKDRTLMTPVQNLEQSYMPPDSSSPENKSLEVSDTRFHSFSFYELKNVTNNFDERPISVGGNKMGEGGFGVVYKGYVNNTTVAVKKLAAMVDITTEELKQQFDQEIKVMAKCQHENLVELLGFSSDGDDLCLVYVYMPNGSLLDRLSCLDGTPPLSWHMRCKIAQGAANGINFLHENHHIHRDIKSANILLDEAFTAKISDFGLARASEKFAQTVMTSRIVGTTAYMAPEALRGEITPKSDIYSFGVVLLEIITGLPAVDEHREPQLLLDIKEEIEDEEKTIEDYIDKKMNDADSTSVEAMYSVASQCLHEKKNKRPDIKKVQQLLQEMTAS", "chain of UniProt O14965 (whole entry, looked up)": "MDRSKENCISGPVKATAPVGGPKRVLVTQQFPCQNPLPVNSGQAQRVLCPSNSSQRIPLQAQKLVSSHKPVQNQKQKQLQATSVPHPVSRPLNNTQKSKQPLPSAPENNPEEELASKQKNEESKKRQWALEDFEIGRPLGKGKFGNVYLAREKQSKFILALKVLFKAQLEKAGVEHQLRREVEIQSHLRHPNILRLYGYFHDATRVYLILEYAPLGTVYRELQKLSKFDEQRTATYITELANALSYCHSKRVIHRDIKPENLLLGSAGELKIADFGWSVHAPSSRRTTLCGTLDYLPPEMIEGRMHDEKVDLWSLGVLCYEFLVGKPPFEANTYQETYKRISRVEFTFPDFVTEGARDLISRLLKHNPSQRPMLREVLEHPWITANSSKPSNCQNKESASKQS", "chain of UniProt P49840 (whole entry, looked up)": "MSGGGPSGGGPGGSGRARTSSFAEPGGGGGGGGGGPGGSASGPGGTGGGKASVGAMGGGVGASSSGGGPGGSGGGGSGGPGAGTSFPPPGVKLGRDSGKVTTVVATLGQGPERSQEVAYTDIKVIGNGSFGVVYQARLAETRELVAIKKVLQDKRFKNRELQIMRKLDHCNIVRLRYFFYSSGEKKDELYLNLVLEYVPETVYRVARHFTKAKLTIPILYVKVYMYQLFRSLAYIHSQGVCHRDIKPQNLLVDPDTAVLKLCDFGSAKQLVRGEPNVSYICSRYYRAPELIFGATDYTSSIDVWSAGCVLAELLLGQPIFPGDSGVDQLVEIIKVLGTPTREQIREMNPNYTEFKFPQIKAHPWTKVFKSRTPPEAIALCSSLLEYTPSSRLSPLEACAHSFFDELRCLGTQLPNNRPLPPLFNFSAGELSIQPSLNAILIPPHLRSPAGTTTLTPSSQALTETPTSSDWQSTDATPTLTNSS", "chain of UniProt O95819 (whole entry, looked up)": "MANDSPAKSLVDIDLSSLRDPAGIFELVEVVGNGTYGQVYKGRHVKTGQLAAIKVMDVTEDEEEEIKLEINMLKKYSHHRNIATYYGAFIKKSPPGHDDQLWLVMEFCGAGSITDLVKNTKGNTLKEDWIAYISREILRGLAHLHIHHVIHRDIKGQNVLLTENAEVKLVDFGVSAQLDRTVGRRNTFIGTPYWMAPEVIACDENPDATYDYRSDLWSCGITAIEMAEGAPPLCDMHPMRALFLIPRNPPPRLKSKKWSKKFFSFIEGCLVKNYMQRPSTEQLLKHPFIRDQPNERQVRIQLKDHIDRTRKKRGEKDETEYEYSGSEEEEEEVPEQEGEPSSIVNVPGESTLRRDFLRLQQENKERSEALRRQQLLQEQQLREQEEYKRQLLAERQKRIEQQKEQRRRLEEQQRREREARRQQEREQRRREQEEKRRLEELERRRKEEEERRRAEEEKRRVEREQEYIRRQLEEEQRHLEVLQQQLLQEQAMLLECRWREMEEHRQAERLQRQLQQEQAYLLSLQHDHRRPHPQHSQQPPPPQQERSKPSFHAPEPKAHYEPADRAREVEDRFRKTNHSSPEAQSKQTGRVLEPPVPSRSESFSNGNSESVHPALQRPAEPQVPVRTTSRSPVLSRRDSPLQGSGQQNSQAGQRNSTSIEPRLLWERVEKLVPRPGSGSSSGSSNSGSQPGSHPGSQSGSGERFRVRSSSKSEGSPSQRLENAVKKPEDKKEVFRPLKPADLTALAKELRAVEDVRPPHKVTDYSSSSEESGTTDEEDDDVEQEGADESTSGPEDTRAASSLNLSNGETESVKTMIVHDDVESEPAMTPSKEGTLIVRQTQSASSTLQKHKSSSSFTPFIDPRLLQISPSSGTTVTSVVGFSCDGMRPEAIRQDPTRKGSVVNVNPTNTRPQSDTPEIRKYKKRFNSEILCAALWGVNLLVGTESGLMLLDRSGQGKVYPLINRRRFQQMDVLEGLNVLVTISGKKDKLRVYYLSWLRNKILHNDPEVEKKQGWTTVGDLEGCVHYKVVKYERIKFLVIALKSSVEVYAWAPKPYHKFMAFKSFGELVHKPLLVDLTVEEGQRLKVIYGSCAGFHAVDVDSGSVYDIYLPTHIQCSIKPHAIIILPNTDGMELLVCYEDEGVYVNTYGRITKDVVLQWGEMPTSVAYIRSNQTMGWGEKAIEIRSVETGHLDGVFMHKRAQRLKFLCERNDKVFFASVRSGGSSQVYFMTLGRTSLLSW", "chain of UniProt Q6PHR2 (whole entry, looked up)": "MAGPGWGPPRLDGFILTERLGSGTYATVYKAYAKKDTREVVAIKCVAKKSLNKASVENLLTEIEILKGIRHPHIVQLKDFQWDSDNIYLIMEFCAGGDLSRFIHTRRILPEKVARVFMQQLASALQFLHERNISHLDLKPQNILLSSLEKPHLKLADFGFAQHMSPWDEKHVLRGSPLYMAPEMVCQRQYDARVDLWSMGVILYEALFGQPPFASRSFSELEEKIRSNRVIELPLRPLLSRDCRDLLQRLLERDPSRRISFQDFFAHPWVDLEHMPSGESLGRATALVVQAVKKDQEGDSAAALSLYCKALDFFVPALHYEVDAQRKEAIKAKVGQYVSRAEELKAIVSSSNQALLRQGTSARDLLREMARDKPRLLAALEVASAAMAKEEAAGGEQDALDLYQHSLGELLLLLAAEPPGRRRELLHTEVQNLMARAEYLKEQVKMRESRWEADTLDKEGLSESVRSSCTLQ", "chain of UniProt P51451 (whole entry, looked up)": "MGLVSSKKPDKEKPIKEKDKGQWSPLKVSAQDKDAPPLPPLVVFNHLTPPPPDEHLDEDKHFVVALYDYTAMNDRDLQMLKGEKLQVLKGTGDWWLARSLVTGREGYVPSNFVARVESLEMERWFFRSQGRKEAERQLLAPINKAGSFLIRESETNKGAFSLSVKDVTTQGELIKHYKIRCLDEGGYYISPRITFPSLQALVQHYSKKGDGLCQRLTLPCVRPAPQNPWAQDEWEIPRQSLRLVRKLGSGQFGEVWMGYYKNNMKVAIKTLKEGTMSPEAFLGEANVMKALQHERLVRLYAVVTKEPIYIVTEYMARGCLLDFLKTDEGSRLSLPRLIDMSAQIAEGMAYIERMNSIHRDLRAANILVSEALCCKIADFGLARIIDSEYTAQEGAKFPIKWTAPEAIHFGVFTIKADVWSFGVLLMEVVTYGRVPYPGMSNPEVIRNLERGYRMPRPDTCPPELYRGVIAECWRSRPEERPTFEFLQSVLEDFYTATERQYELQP", "chain of UniProt Q92772 (whole entry, looked up)": "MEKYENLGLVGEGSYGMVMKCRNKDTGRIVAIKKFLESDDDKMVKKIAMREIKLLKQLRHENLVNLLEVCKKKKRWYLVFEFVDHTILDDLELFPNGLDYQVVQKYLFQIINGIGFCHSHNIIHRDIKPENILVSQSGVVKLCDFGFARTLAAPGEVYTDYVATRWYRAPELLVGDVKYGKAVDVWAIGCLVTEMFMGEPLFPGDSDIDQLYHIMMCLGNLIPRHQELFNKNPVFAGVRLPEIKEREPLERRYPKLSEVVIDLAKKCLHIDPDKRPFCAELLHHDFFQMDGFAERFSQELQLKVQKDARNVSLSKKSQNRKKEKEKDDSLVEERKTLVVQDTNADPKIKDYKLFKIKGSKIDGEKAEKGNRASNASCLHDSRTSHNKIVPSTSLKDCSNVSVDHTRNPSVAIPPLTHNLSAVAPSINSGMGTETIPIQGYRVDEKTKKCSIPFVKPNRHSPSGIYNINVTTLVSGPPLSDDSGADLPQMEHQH"}
{"data": "Series 1", "SMILES": "CC1=C(C#N)[C@@H](c2ccc3[nH]nc(C)c3c2)C(C#N)=C(c2ccc(Cl)cc2)N1", "technique": "competition with immobilised ligand", "tested at": "1 µM"}
{"target": "Aurora kinase A (AURKA, Homo sapiens, UniProt O14965)", "assay": "cell-free assay", "remaining binding [%]": 100}
{"target": "EGFR (Homo sapiens, UniProt P00533, del747-752/P753S)", "assay": "cell-free assay", "remaining binding [%]": 79.5}
{"target": "PAK1 (Homo sapiens, UniProt Q13153)", "assay": "cell-free assay", "remaining binding [%]": 100}
{"target": "FLT3 (Homo sapiens, UniProt P36888, D835Y)", "assay": "cell-free assay", "remaining binding [%]": 93.5}
{"target": "CDKL2 (Homo sapiens, UniProt Q92772)", "assay": "binding", "remaining binding [%]": 97.9}
{"target": "STK39 (Homo sapiens, UniProt Q9UEW8)", "assay": "cell-free assay", "remaining binding [%]": 90.7}
{"target": "BLK (Homo sapiens, UniProt P51451)", "assay": "cell-free assay", "remaining binding [%]": 100}
{"target": "MAPKAPK2 (Homo sapiens, UniProt P49137)", "assay": "cell-free assay", "remaining binding [%]": 100}
{"data": "Series 2", "cell line": "mouse MPNST tumor cells", "technique": "high-content nuclear imaging", "measured": "cell number", "tested at": "10 µM", "time": "12 h", "notes": "mean of 2 replicates", "relative to": "plate mean", "direction": "higher = more cells"}
{"Structure (SMILES)": "O=C(CN1CCN(C(=O)c2ccco2)CC1)Nc1cc(C(F)(F)F)ccc1Cl", "nuclei count": "-0.0166 z-score"}
{"Structure (SMILES)": "O=C(NCc1ccc(F)cc1)C1CCN(S(=O)(=O)c2cc(Cl)cc(Cl)c2)CC1", "nuclei count": "0.307 z-score"}
{"Structure (SMILES)": "Clc1cccc(Cl)c1CSc1nnc(-c2ccc[nH]2)o1", "nuclei count": "2.36 z-score"}
{"Structure (SMILES)": "O=C1S/C(=C\\c2ccc(OCc3cccc(B(O)O)c3)cc2)C(=O)N1Cc1ccc(F)cc1", "nuclei count": "2.14 z-score"}
{"Structure (SMILES)": "O=C(Nc1cc2cc[nH]c2cn1)c1ccccc1", "nuclei count": "-0.17 z-score"}
{"Structure (SMILES)": "Cc1c(C(N)=O)nc2n1C[C@@H](COc1ccc(C(C)(C)C)cc1)O2", "nuclei count": "-0.214 z-score"}
{"Structure (SMILES)": "NC1(C(=O)N[C@@H](CCO)c2ccc(Cl)cc2)CCN(c2ncnc3[nH]ccc23)CC1", "nuclei count": "1.32 z-score"}
{"Structure (SMILES)": "Cn1c(NC[C@@H](N)Cc2ccccc2)nc(-c2ccncc2)c(-c2ccc3ccccc3c2)c1=O", "nuclei count": "2.34 z-score"}
{"Structure (SMILES)": "N[C@@H](CC(=O)N1CCn2c(nnc2C(F)(F)F)C1)Cc1[nH]nc2c(F)c(F)ccc12", "nuclei count": "-0.39 z-score"}
{"Structure (SMILES)": "CCCn1c(=O)[nH]c2nc(-c3ccc(S(=O)(=O)N4CCN(c5ccc(Cl)cc5)CC4)cc3)[nH]c2c1=O", "nuclei count": "2.15 z-score"}
{"Structure (SMILES)": "Cc1c(-c2ccc(O)cc2)nn(-c2ccc(O)cc2)c1-c1ccc(OCCN2CCCCC2)cc1", "nuclei count": "-6.14 z-score"}
{"Structure (SMILES)": "CC(C)(CO)n1cc(C(=O)c2cncc(NC(=O)Cc3ccc(Cl)cn3)c2)c2cnc(N)nc21", "nuclei count": "2.64 z-score"}
{"Structure (SMILES)": "CC(=O)NO", "nuclei count": "0.744 z-score"}
{"Structure (SMILES)": "C[C@]12C=CC(=O)N[C@@H]1CC[C@@H]1[C@@H]2CC[C@]2(C)[C@@H](C(=O)Nc3cc(C(F)(F)F)ccc3C(F)(F)F)CC[C@@H]12", "nuclei count": "2.87 z-score"}
{"Structure (SMILES)": "COc1ccc(C#Cc2ccc(C(=O)N3CCC[C@@H](O)C3)c(F)c2)cc1", "nuclei count": "-0.0105 z-score"}
{"data": "Series 3", "target": "NUAK family SNF1-like kinase 2 (NUAK2, Homo sapiens, UniProt Q9H093)", "effect on": "enzyme activity", "action": "inhibitor", "tested at": "0.5 µM", "relative to": "control", "chain of UniProt Q9H093 (whole entry, looked up)": "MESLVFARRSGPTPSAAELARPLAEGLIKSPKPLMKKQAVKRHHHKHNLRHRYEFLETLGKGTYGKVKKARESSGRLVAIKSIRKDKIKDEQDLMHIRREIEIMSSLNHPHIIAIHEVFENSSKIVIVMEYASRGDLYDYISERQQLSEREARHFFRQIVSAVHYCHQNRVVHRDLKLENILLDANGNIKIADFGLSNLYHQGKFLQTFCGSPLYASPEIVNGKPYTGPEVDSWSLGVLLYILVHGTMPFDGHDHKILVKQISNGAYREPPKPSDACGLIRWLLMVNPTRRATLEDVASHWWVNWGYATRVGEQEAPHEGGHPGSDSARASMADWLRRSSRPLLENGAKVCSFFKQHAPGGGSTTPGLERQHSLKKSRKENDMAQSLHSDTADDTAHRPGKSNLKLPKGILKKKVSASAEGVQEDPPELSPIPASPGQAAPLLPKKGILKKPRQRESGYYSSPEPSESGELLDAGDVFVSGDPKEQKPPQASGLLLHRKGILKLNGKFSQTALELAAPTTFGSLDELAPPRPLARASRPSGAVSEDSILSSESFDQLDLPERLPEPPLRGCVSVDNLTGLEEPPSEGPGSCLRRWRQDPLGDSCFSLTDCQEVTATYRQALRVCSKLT"}
{"SMILES": "COc1cc2c(cc1OC)-c1[nH]nc(Nc3cccc(F)c3)c1C2", "remaining activity [%]": 94.6}
{"SMILES": "O=C1c2ccccc2-c2n[nH]c3cccc1c23", "remaining activity [%]": 80.7}
{"SMILES": "N#Cc1c(NC(=O)c2cccc3ccccc23)sc2c1CCCC2", "remaining activity [%]": 76.7}
{"SMILES": "CCN(CC)CCNC(=O)c1c(C)[nH]c(/C=C2\\C(=O)Nc3ccc(Cl)cc32)c1C", "remaining activity [%]": 70.7}
{"SMILES": "N#C/C(=C\\c1ccc(O)c(O)c1)C(=O)NCc1ccccc1", "remaining activity [%]": 131}
{"SMILES": "O=C(Nc1cccc(Nc2nccc(Nc3cccc(C(F)(F)F)c3)n2)c1)C1CC1", "remaining activity [%]": 94.3}
{"SMILES": "Cn1nc2c3c(cccc31)C(=O)c1ccccc1-2", "remaining activity [%]": 85.7}
{"SMILES": "COc1cc2ncnc(Nc3ccc(O)c(Br)c3)c2cc1OC", "remaining activity [%]": 88.3}
{"SMILES": "O=c1cc(-c2cccc3c2Sc2ccccc2S3)oc(N2CCOCC2)c1", "remaining activity [%]": 109}
{"SMILES": "CN([C@@H](Cc1ccc(OS(=O)(=O)c2cccc3cnccc23)cc1)C(=O)N1CCN(c2ccccc2)CC1)S(=O)(=O)c1cccc2cnccc12", "remaining activity [%]": 88.7}
{"SMILES": "Ic1cccc(CSc2nnc(-c3ccncc3)o2)c1", "remaining activity [%]": 98.9}
{"SMILES": "C[C@@H]1CCN(C(=O)CC#N)C[C@@H]1N(C)c1ncnc2[nH]ccc12", "remaining activity [%]": 80.3}
{"SMILES": "O=C1C(Cl)=C(N2C(=O)CCC2=O)C(=O)c2ccccc21", "remaining activity [%]": 86.7}
{"SMILES": "COc1cc2ncnc(Nc3cccc(Cl)c3)c2cc1OC", "remaining activity [%]": 142}
{"SMILES": "Cc1cc2ncc(-c3ccccc3)nc2cc1C", "remaining activity [%]": 124}
{"SMILES": "Cc1cn(-c2cc(NC(=O)c3ccc(C)c(Nc4nccc(-c5cccnc5)n4)c3)cc(C(F)(F)F)c2)cn1", "remaining activity [%]": 101}
{"SMILES": "Nc1cccc(-c2cc3c(Oc4cccc(O)c4)ncnc3[nH]2)c1", "remaining activity [%]": 90.3}
{"SMILES": "c1ccc(-c2[nH]ncc2-c2ccnc3ccccc23)nc1", "remaining activity [%]": 135}
{"SMILES": "O=C(NC(NC(=S)Nc1ccc(F)c([N+](=O)[O-])c1)C(Cl)(Cl)Cl)C(c1ccccc1)c1ccccc1 (centres unmarked)", "remaining activity [%]": 108}
{"SMILES": "CCN(CC)C(=O)c1ccc(Nc2nc(OCC3CCCCC3)c3[nH]cnc3n2)cc1", "remaining activity [%]": 23.1}
{"SMILES": "CCOc1nc(NC(=O)Cc2cc(OC)ccc2OC)cc(N)c1C#N", "remaining activity [%]": 72}
{"SMILES": "CN(C)C[C@H]1CCn2c(c(C3=C(c4cn(C)c5ccccc45)C(=O)NC3=O)c3ccccc32)C1", "remaining activity [%]": 121}
{"SMILES": "Cc1nc2cc3nc(-c4cccs4)cnc3cc2n1C", "remaining activity [%]": 96.7}
{"SMILES": "CCN(CC)CCNC(=O)c1c(C)[nH]c(/C=C2\\C(=O)Nc3ccc(F)cc32)c1C", "remaining activity [%]": 65}
{"SMILES": "c1ccc(-c2cnc(Nc3ccc(OCCN4CCCC4)cc3)s2)cc1", "remaining activity [%]": 107}
{"data": "Series 4", "SMILES": "O=C(Nc1ccccc1)Nc1cccc(Oc2ccc3nccn3n2)c1", "technique": "competitive binding panel", "tested at": "1 µM", "relative to": "vehicle"}
{"target": "CSNK1G3 (Homo sapiens, UniProt Q9Y6M4)", "remaining binding": "98%"}
{"target": "MERTK (Homo sapiens, UniProt Q12866)", "remaining binding": "96%"}
{"target": "GSK3A (Homo sapiens, UniProt P49840)", "remaining binding": "50%"}
{"target": "ULK3 (Homo sapiens, UniProt Q6PHR2)", "remaining binding": "100%"}
{"target": "MAP4K4 (Homo sapiens, UniProt O95819)", "remaining binding": "100%"}
{"target": "IRAK4 (Homo sapiens, UniProt Q9NWZ3)", "remaining binding": "100%"}
{"target": "CSNK1D (Homo sapiens, UniProt P48730)", "remaining binding": "100%"}
{"target": "COQ8A (Homo sapiens, UniProt Q8NI60)", "assay": "measured: ADCK3", "remaining binding": "95%"}
